{"data": "Measured values of several laboratories", "note": "Parts stem from different laboratories: compare values within a part only. Substitutions count along the parent as printed."}
{"data": "Block 1", "target": "CCNE1, cyclin fold, Cln2 fusion (human)", "technique": "yeast growth competition, sequencing", "medium": "yeast", "setting": "strong parent motif", "baseline": "not given", "reading": "higher = stronger binding", "starting sequence": "E2F1 docking peptide (human); PPVKRRLDFETDH; partner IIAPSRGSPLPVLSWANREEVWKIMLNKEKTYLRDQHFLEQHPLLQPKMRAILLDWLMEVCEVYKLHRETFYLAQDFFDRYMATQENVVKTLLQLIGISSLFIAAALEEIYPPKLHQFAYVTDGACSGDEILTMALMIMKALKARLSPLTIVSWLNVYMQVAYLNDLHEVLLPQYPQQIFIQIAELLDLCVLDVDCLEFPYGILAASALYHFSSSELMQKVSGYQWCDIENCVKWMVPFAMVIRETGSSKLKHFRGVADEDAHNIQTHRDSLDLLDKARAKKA"}
{"Variant": "PPVKRHLDFETDH [R6H]", "normalised enrichment score": 3.07}
{"Variant": "PVVKRRLDFETDH [P2V]", "normalised enrichment score": 5.92}
{"Variant": "PPVERRLDFETDH [K4E]", "normalised enrichment score": 1.91}
{"Variant": "PPVKMRLDFETDH [R5M]", "normalised enrichment score": 0.699}
{"Variant": "PPVKRRLDFETGH [D12G]", "normalised enrichment score": 6.63}
{"Variant": "PPVKRRLDFEKDH [T11K]", "normalised enrichment score": 5.65}
{"Variant": "PPVKRRGDFETDH [L7G]", "normalised enrichment score": -0.121}
{"Variant": "PPVKRRLDDETDH [F9D]", "normalised enrichment score": -0.0399}
{"Variant": "PPVKRRLDFETEH [D12E]", "normalised enrichment score": 6.29}
{"Variant": "PPVSRRLDFETDH [K4S]", "normalised enrichment score": 5.07}
{"Variant": "PPVKRALDFETDH [R6A]", "normalised enrichment score": 4.35}
{"Variant": "PQVKRRLDFETDH [P2Q]", "normalised enrichment score": 6.19}
{"Variant": "PPQKRRLDFETDH [V3Q]", "normalised enrichment score": 1.32}
{"Variant": "PPVKRRLDCETDH [F9C]", "normalised enrichment score": 0.388}
{"Variant": "PPVKRRLSFETDH [D8S]", "normalised enrichment score": 5.59}
{"Variant": "PPVKRRLDFECDH [T11C]", "normalised enrichment score": 5.99}
{"data": "Block 2", "target": "Interferon regulatory factor 5, full length, phosphomimetic (IRF5, Homo sapiens, UniProt Q13568-2, residues 1-514, K96S/S451D/S453D/S456D/S462D)", "technique": "protein-binding microarray", "form": "double-stranded DNA, one strand shown", "medium": "in vitro", "tested at": "250 nM", "setting": "60-bp whole probe", "added": "salmon DNA 0.4 mg/ml", "baseline": "random background probes", "reading": "higher = stronger binding", "shared flanks, not repeated": "GCCTAGCAC … GTCTTGATTCGCTTGACGCTGCTG"}
{"Sequence": "GACGGTATCCGGACTGGGGACGTGCTA", "log fluorescence [z-score]": -0.107}
{"Sequence": "TTAGATATCAGTATGGATTAGTGCTAG", "log fluorescence [z-score]": 1.33}
{"Sequence": "TTAGGATTCGGTTCCGGTTAGTGCTAG", "log fluorescence [z-score]": 1.95}
{"Sequence": "GACGGACTGGGTTTCTGGACGTGCTAG", "log fluorescence [z-score]": 0.129}
{"Sequence": "TTAGGTTTCAACTTTCGGTTAGTGCTA", "log fluorescence [z-score]": 9.68}
{"Sequence": "GACGATTCCATTTTCGAGACGTGCTAG", "log fluorescence [z-score]": 2.34}
{"Sequence": "TTAGGTTCCCTTTGCCTTTAGTGCTAG", "log fluorescence [z-score]": 0.106}
{"Sequence": "TCACCTTTCTCTTGGAGACTGTGCTAG", "log fluorescence [z-score]": 0.846}
{"Sequence": "ATAGGTTTCCTTTTCCTTTAGTGCTAG", "log fluorescence [z-score]": 1.55}
{"Sequence": "GACGGTATCCTAATGCTGACGTGCTAG", "log fluorescence [z-score]": -0.252}
{"Sequence": "GTCATTATCCTTGTCCCTCCGTGCTAG", "log fluorescence [z-score]": 0.264}
{"Sequence": "TTAGAACTGAGTCTCGGTTAGTGCTAG", "log fluorescence [z-score]": 0.975}
{"Sequence": "GACGGATTCGGTTCCGGGACGTGCTAG", "log fluorescence [z-score]": 0.435}
{"Sequence": "GACGATATCACTCTCGAGACGTGCTAG", "log fluorescence [z-score]": 1.55}
{"Sequence": "TCTTGTCTGGATGTGCCTTAGTGCTAG", "log fluorescence [z-score]": -0.256}
{"Sequence": "GACGATTCCTGTTTCGAGACGTGCTAG", "log fluorescence [z-score]": 3.17}
{"Sequence": "GACTGTCTCCTTATCCTGACGTGCTAG", "log fluorescence [z-score]": 0.13}
{"Sequence": "GACGATTTCAGTCACGAGACGTGCTAG", "log fluorescence [z-score]": 1.22}
{"Sequence": "CCTCACTTCCTTCTGCCTGTGTGCTAG", "log fluorescence [z-score]": 0.296}
{"data": "Block 3", "target": "Histone acetyltransferase KAT6A, winged helix 1, GST fusion (KAT6A, Homo sapiens, UniProt Q92794, residues 1-85)", "technique": "protein binding microarray", "form": "double-stranded DNA, one strand shown", "medium": "in vitro", "tested at": "not given", "setting": "8-mer, flanks averaged, mean of 2 arrays, mostly near background", "baseline": "not given", "reading": "higher = stronger binding", "Construct (chain)": "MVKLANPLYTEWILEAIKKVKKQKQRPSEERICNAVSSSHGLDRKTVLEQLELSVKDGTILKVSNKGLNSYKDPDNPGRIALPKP"}
{"Sequence": "ACGCCTGC", "E-score": -0.102}
{"Sequence": "CAACCCTG", "E-score": -0.0634}
{"Sequence": "GGAGATCC", "E-score": -0.0194}
{"Sequence": "TCGGGGCA", "E-score": 0.121}
{"Sequence": "CAATACCC", "E-score": 0.0321}
{"Sequence": "GCGAATAC", "E-score": 0.135}
{"Sequence": "CACGCCAA", "E-score": -0.115}
{"Sequence": "ACTGGGAG", "E-score": -0.0611}
{"Sequence": "CGCGTAAA", "E-score": 0.272}
{"Sequence": "TACACAAA", "E-score": -0.0659}
{"Sequence": "AATTGCGA", "E-score": 0.0181}
{"Sequence": "GCAACCGA", "E-score": -0.0916}
{"Sequence": "ACTACGTG", "E-score": 0.0114}
{"Sequence": "AACGATGT", "E-score": -0.131}
{"Sequence": "ACAAAACA", "E-score": -0.238}
{"Sequence": "ACAACGGC", "E-score": 0.317}
{"Sequence": "GTAGAAGA", "E-score": -0.109}
{"Sequence": "CAAATTCA", "E-score": -0.116}
{"Sequence": "CGCTGCCG", "E-score": 0.396}
{"Sequence": "CGACTCGC", "E-score": 0.0708}
{"Sequence": "AATTAATA", "E-score": -0.0666}
{"data": "Block 4", "target": "Ras GTPase-activating protein-binding protein 1, full length (G3BP1, Homo sapiens, UniProt Q13283)", "technique": "RNA Bind-n-Seq", "form": "RNA", "medium": "in vitro", "tested at": "200 nM", "setting": "whole 134-nt RNA, ends assumed", "added": "150 mM LiCl", "baseline": "input library", "reading": "higher = stronger binding", "each molecule": "7-deaza-guanosine replaces G", "shared flanks, not repeated": "GGGAGUUCUACAGUCCGACGAUC … UGGAAUUCUCGGGUGUCAAGG", "UniProt Q13283, sequence (whole entry, looked up)": "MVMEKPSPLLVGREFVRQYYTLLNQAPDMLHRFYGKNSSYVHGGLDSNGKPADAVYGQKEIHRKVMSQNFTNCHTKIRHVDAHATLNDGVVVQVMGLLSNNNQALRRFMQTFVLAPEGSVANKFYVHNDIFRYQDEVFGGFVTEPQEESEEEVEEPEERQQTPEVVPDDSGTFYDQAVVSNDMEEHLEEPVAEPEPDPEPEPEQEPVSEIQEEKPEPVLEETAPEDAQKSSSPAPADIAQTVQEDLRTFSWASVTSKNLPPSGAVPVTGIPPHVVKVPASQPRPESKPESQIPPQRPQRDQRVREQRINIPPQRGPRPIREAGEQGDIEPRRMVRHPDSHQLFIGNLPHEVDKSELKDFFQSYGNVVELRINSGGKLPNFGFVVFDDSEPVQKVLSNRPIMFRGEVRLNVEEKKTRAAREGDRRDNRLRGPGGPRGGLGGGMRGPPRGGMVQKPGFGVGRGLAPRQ"}
{"Sequence": "UGGGAGGUGGAUUUUGUUUAUUUUUUUAGCUCAUUUCCAGGGGUGGGAAUUUUUUUUUAAUUUGUGUCAUGAAUAAAGUUGUUUUUGAAA", "log2 enrichment": -0.234}
{"Sequence": "AAGUCCUGUGCUACACAUCGUAUGUACCGAAUCGGGUUUGGGAGGGUUUUUUUGGGAAAGUAUUAUGUUACGCCGUUCGGAUCUGCACUU", "log2 enrichment": -0.0247}
{"Sequence": "AAGUCCUGUGCUACACAUCGUAUGUACCGAAUCGGGGUGGGGAAAGGGGAAAGGGGAAAGUAUUAUGUUACGCCGUUCGGAUCUGCACUU", "log2 enrichment": 0.331}
{"Sequence": "CCUGUGCUACACAUCGUAUGUACCGAAUCGGGGCCCCCCGGGGCCCCCCGGCCCCCCGGGGAAAGUAUUAUGUUACGCCGUUCGGAUCUG", "log2 enrichment": -1.45}
{"Sequence": "AAGUCCUGUGCUACACAUCGUAUGUACCGAAUCGGAAAAAGGUUUGGAAAAAAAGGAAAGUAUUAUGUUACGCCGUUCGGAUCUGCACUU", "log2 enrichment": -1.92}
{"Sequence": "CUCAAGUCCUGUGCUACACAUCGUAUGUACCGAAUCGGGGAGGGGAGGGAGGGGAAAGUAUUAUGUUACGCCGUUCGGAUCUGCACUUCC", "log2 enrichment": 0.132}
{"Sequence": "GCAGGAAGUAAAAACAAAUGGAAAUGCUUGGGAUAGUGGCAGGGGUGGGGGUUGCUAAGGAAAGGGUGGGAUGGGAGUGGGUAAAGAGUU", "log2 enrichment": 0.241}
{"Sequence": "UAACUUUAUAGGAGGAUCUGAUGGAUAUGGCAGUGGACGUGGAUUUGGGGAUGGCUAUAAUGGGUAUGGAGGAGGACCUGGAGGUGGCAA", "log2 enrichment": -0.673}
{"data": "Block 5", "target": "ABI1, truncated, D143A, DHFR fusion (Arabidopsis thaliana)", "technique": "DHFR PCA, deep sequencing", "medium": "yeast", "setting": "methotrexate growth selection, single substitutions", "added": "(+)-ABA 1.4 µM", "baseline": "wild-type fitted maximum", "reading": "higher = stronger binding", "starting sequence": "PYL1, truncated, DHFR fusion (Arabidopsis thaliana); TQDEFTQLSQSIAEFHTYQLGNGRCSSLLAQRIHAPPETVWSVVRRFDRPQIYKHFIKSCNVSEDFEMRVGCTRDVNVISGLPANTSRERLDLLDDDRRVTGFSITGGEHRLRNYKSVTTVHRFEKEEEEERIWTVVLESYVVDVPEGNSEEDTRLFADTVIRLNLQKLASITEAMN; partner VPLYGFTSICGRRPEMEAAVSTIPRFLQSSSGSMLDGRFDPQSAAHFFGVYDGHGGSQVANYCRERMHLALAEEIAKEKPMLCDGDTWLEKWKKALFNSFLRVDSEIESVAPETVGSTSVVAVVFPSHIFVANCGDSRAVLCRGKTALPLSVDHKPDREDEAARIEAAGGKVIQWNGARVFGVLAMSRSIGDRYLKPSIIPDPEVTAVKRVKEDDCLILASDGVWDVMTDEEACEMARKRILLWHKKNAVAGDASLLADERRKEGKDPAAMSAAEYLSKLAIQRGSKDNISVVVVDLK"}
{"Variant": "E4T", "relative binding score": "51.3%"}
{"Variant": "D144W", "relative binding score": "-22.6%"}
{"Variant": "R24G", "relative binding score": "-0.0884%"}
{"Variant": "S150A", "relative binding score": "16.6%"}
{"Variant": "F15L", "relative binding score": "14.7%"}
{"Variant": "T173K", "relative binding score": "-8.1%"}
{"Variant": "E139A", "relative binding score": "17.3%"}
{"Variant": "V43H", "relative binding score": "-7.47%"}
{"Variant": "R90D", "relative binding score": "3.84%"}
{"Variant": "R69Y", "relative binding score": "21.1%"}
{"Variant": "T119Y", "relative binding score": "-0.51%"}
{"Variant": "V44Q", "relative binding score": "-4.3%"}
{"Variant": "T173F", "relative binding score": "-14.8%"}
{"Variant": "C60Q", "relative binding score": "-5.46%"}
{"Variant": "E67D", "relative binding score": "52.3%"}
{"Variant": "L28D", "relative binding score": "7.54%"}
{"Variant": "I52N", "relative binding score": "20.8%"}
{"Variant": "F124W", "relative binding score": "66.3%"}
{"note": "Excerpt of the above (block 5):"}
{"Variant": "R24G", "relative binding score": "-0.0884%"}
{"Variant": "D144W", "relative binding score": "-22.6%"}
{"Variant": "V44Q", "relative binding score": "-4.3%"}
{"Variant": "E67D", "relative binding score": "52.3%"}
{"Variant": "I52N", "relative binding score": "20.8%"}
